Experimental data pooled from the literature.
± gives the spread as reported.

O=c1c(I)ccc2n1C[C@@H]1CNC[C@H]2C1
hypothermia (α7 null mutant mice; intraperitoneal, 0.2 mg/kg, rectal temperature; reference: wild-type mice): no effect

O=C1c2ccccc2-c2ccc([N+](=O)[O-])c3cccc1c23
EC50 (developmental toxicity; zebrafish (Danio rerio) embryos; 6 to 120 hpf): 0.2 µM

CC1=C(C(=O)Cl)C(c2ccccc2Cl)NC(=S)N1 (centres unmarked)
mean arterial pressure (carotid artery cannulation; male Wistar rats, anaesthetised; 0.3 mL, 3 h): 25.4 ± 1.34 mm Hg

CSCC[C@H](NC(=O)[C@H](CC(C)C)NC(=O)[C@H](C)N)C(=O)N[C@@H](CC(C)C)C(=O)N[C@@H](CCCNC(=N)N)C(=O)N[C@@H](CC(C)C)C(=O)N[C@@H](CC(C)C)C(=O)N[C@@H](CCCNC(=N)N)C(=O)N[C@H](C(=O)O)[C@@H](C)O
IFN-γ+ CD8+ T cells (PBMC, human, HSV-1 seropositive, HLA-A*0201+; 10 µg/mL, 72 h): ≤ 4.1%

NC[C@@H]1O[C@H](O[C@H]2[C@@H](O)[C@H](O[C@@H]3[C@@H](O)[C@H](N)C[C@H](N)[C@H]3O[C@H]3O[C@H](CO)[C@@H](O)[C@H](O)[C@H]3N)O[C@@H]2CO)[C@H](N)[C@@H](O)[C@@H]1O
IC50 ([14C]-phenylalanine incorporation, inhibitor, (UUU)12-directed cell-free translation; M. smegmatis 70S ribosomes, Leishmania/Trypanosoma hybrid decoding site; 60 min, 37 °C): 96 µM

CC(=O)N[C@@H](CC(C)C)C(=O)NCC(=O)N[C@@H](Cc1ccc(O)cc1)C(=O)NCC(=O)N[C@@H](CCCCN)C(N)=O
transition enthalpy (DSC; SOPC/cholesterol 7/3 bilayers; 10 mol%, pH 7.40): 1.4 kcal/mol

CC[C@H](C)[C@H](NC(=O)[C@@H](NC(=O)[C@@H](NC(=O)[C@H](CC(C)C)NC(=O)[C@@H](N)CC(=O)O)[C@@H](C)O)[C@@H](C)O)C(=O)N[C@@H](CCCNC(=N)N)C(=O)N[C@H](C(=O)N[C@H](C(=O)N[C@H](C(=O)N[C@@H](CS)C(=O)N[C@@H](CCC(=O)O)C(=O)NCC(=O)N[C@@H](CCCCN)C(=O)O)C(C)C)[C@@H](C)O)C(C)C
EC50 (IFN-γ release, ELISPOT; splenocytes, BALB/c mouse immunised): 1 µM

COC(=O)C1=C(C)NC(C)=C(C(=O)OC)C1c1ccccc1[N+](=O)[O-]
mean arterial pressure (carotid artery cannulation; male Wistar rats, anaesthetised; 0.3 mL, 3 h): 20.8 ± 0.58 mm Hg

CC[C@H](C)[C@H](NC(=O)CNC(=O)[C@H](Cc1c[nH]c2ccccc12)NC(=O)CNC(C)=O)C(=O)N[C@@H](CCCCN)C(N)=O
transition enthalpy (DSC; SOPC/cholesterol 7/3 bilayers; 5 mol%, pH 7.40): 0.9 kcal/mol

CC(C)(NC(=O)O[C@@H]1CN2CCC1CC2)c1csc(-c2ccc(F)cc2)n1
chitotriosidase activity decrease (sample A patients, CSF; dose not given, week 52, with: imiglucerase; reference: baseline): 29%

Cc1ncc(COCc2cn(Cc3cc(F)cc(F)c3)nn2)c(CO)c1O
absorbance change (Cu2+ chelation; 100 µM, 30 min, 37 °C, with: Cu2+ 100 µM): 0%

Oc1cc2ccccc2c2ccccc12
EC50 (zebrafish embryo): 0.5 to 5.5 µM

CSCC[C@@H]1NC(=O)[C@H](CC(C)C)NC(=O)[C@H](CCCCN)NC(=O)[C@H](CCC(N)=O)NC(=O)[C@H](CCCNC(=N)N)NC(=O)[C@H](CCCCN)NC(=O)[C@H](CCCNC(=N)N)NC(=O)[C@H](CCC(N)=O)NC(=O)[C@H](C(C)C)NC(=O)[C@@H](NC(=O)[C@@H]2CCCN2C(=O)[C@H](C)NC(=O)[C@H](CC(C)C)NC(=O)[C@H](CC(C)C)NC(=O)[C@H](C)NC(=O)[C@H](CC(C)C)NC(=O)[C@H](CC(C)C)NC(=O)[C@@H](NC(=O)[C@H](C)NC(=O)[C@@H]2CCCN2C(=O)[C@H](CC(C)C)NC(=O)[C@H](CC(C)C)NC(=O)[C@H](C)NC(=O)[C@@H](NC(=O)[C@H](C)NC(=O)[C@H](C)N)C(C)C)C(C)C)CSSC[C@@H](C(=O)O)NC(=O)[C@@H]2CCCN2C1=O
atherosclerotic lesion area (Ldlr-/- mice, female, aortic root; subcutaneous pump, dose not given, 4 weeks; reference: saline): decreased

C[C@@H]1NC(C)(C)CO[C@@]1(O)c1cccc(Br)c1
ED50 (nicotine antinociception blockade, antagonist, tail-flick test; mouse; 15 min pretreatment, with: nicotine 2.5 mg/kg subcutaneous): 0.16 mg/kg

A few entries again:
CSCC[C@@H]1NC(=O)[C@H](CC(C)C)NC(=O)[C@H](CCCCN)NC(=O)[C@H](CCC(N)=O)NC(=O)[C@H](CCCNC(=N)N)NC(=O)[C@H](CCCCN)NC(=O)[C@H](CCCNC(=N)N)NC(=O)[C@H](CCC(N)=O)NC(=O)[C@H](C(C)C)NC(=O)[C@@H](NC(=O)[C@@H]2CCCN2C(=O)[C@H](C)NC(=O)[C@H](CC(C)C)NC(=O)[C@H](CC(C)C)NC(=O)[C@H](C)NC(=O)[C@H](CC(C)C)NC(=O)[C@H](CC(C)C)NC(=O)[C@@H](NC(=O)[C@H](C)NC(=O)[C@@H]2CCCN2C(=O)[C@H](CC(C)C)NC(=O)[C@H](CC(C)C)NC(=O)[C@H](C)NC(=O)[C@@H](NC(=O)[C@H](C)NC(=O)[C@H](C)N)C(C)C)C(C)C)CSSC[C@@H](C(=O)O)NC(=O)[C@@H]2CCCN2C1=O
atherosclerotic lesion area (Ldlr-/- mice, female, aortic root; subcutaneous pump, dose not given, 4 weeks; reference: saline): decreased

C[C@@H]1NC(C)(C)CO[C@@]1(O)c1cccc(Br)c1
ED50 (nicotine antinociception blockade, antagonist, tail-flick test; mouse; 15 min pretreatment, with: nicotine 2.5 mg/kg subcutaneous): 0.16 mg/kg
